# Earlier results as cited in several papers.
# Values joined by “and” are separate records of one study, mostly repeats; a detail may differ. ± gives the spread as reported.
# Sequence of UniProt Q9Y2K2 (whole entry, looked up): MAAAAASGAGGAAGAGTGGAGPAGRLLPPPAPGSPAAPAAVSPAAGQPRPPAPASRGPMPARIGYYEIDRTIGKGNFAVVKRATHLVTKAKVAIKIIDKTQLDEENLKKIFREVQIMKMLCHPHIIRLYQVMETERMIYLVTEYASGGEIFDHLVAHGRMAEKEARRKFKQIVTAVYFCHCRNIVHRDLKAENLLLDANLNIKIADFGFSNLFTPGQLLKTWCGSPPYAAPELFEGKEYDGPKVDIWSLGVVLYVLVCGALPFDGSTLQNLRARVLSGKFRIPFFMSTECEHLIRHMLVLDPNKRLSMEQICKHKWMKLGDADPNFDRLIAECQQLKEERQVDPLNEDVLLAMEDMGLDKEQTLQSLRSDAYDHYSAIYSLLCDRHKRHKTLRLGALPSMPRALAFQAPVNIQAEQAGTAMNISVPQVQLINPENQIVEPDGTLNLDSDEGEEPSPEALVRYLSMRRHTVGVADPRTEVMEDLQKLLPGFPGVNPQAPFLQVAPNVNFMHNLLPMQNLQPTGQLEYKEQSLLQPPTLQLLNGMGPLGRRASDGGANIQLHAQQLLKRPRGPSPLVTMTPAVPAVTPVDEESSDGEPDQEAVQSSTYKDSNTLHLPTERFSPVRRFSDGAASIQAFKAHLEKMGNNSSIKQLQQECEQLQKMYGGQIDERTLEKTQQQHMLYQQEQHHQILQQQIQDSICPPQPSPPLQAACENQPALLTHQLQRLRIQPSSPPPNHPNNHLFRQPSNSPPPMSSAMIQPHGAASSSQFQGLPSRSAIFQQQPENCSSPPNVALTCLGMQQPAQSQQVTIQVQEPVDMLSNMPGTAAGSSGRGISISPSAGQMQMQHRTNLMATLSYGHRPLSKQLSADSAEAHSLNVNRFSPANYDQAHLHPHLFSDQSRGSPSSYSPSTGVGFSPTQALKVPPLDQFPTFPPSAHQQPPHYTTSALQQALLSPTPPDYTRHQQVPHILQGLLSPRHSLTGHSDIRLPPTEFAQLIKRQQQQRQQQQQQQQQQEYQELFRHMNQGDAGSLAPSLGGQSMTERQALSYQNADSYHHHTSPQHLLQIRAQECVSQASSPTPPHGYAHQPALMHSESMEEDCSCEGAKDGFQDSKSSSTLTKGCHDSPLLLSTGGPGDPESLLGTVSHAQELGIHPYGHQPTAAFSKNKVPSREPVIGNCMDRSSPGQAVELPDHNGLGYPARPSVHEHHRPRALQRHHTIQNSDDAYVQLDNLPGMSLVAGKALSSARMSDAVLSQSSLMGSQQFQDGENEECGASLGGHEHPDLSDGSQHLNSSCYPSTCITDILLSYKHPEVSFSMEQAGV
# Sequence of UniProt P42336 (whole entry, unmodified, looked up): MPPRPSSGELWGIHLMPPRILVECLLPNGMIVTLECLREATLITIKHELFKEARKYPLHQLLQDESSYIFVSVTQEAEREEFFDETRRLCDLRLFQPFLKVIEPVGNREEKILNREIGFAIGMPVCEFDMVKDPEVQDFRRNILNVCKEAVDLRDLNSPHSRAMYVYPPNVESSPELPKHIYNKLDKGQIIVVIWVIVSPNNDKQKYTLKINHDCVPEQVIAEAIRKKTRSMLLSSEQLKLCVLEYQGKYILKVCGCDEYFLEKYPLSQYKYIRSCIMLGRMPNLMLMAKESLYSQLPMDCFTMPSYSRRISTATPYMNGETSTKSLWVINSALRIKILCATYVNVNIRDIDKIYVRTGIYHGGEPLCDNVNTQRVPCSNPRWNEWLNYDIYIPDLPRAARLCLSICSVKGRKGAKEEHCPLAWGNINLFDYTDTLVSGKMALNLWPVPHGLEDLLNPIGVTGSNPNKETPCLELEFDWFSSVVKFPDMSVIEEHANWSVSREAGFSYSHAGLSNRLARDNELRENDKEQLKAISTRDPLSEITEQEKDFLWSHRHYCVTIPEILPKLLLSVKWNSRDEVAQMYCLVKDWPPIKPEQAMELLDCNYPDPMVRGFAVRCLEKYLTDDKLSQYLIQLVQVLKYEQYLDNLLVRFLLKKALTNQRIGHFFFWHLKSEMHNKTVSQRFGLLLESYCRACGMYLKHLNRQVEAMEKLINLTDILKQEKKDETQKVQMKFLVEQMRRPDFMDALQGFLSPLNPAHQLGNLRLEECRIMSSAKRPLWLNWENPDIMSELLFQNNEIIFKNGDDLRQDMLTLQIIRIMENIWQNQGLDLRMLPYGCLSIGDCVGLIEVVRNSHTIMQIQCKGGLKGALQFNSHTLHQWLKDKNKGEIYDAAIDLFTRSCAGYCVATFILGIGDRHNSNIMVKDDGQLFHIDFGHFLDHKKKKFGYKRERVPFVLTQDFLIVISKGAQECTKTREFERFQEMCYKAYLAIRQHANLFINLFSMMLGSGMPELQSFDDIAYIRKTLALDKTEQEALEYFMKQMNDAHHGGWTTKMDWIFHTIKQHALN
SMILES,target or system,test,system,setting,how to read,endpoint,value
OC[C@H]1O[C@H](O[C@]2(CCl)O[C@H](CCl)[C@@H](O)[C@@H]2O)[C@H](O)[C@@H](O)[C@H]1Cl,,sensory evaluation,"human sensory panel, water",,reference: sucrose,sweetness potency,600 × sucrose
O=C(NC[C@H]1CN(c2ccc(N3CCOCC3=O)cc2)C(=O)O1)c1ccc(Cl)s1,,point-of-care,"dog, whole blood",1 mg/kg/day,,prothrombin time,no effect
CCNCCc1ccc(CN(CC)c2cc(OC)ccc2[C@@H]2CCc3cc(O)ccc3C2)cc1,,local investigator assessed,"human, ER-positive HER2-negative breast cancer",concentration not given,,clinical benefit rate,20.6%
Cc1ccc(C)c(OCCCC(C)(C)C(=O)O)c1,,,"HIV-negative hypertriglyceridemic individuals, plasma","600 mg once daily, 9 weeks, average",,triglyceride reduction,16%
CC1(C)CCC(CN2CCN(c3ccc(C(=O)NS(=O)(=O)c4ccc(NCC5CCOCC5)c([N+](=O)[O-])c4)c(Oc4cnc5[nH]ccc5c4)c3)CC2)=C(c2ccc(Cl)cc2)C1,,,"human, newly diagnosed AML","concentration not given, with: azacitidine",,complete remission rate,37%
CC(=O)O.NC(=O)c1cnc(N[C@@H]2CCCC[C@@H]2N)nc1Nc1cccc(-n2nccn2)c1,,hind paw inflammation,"rat, collagen-induced arthritis",5 mg/kg,,inhibition,31%
C=CC(=O)N1CCC(C(=O)NCC(=O)N2CCN(c3nc(-c4cnc(N)nc4C(F)F)nc(N4CCOCC4)n3)CC2)CC1,"PIK3CA (Homo sapiens, UniProt P42336, E545K)",kinase activity,,1 µM,,remaining activity,0%
Cc1cnc(C)c(C)n1,,,"human, water",,,odour detection threshold,23 µg/kg
Cc1c(C#N)cccc1[C@@H](C)Nc1nnc(C)c2cnc(N3CCOCC3)cc12,NCI-H358,3D cell viability,,14 d,,IC50,114 ± 5 nM
COc1ccccc1Oc1cccc(CN2CCC3(CC2)C(=O)NCN3CCc2ccccc2)c1,human CCR8 Q91W mutant (TM2),"IP accumulation, agonist",,,,EC50,108 nM
Cc1cc(C)c(CNC(=O)c2cc(Cl)c3c(c2C)O[C@@](C)([C@H]2CC[C@H](N(C)C)CC2)O3)c(=O)[nH]1,,,relapsed/refractory PTCL patients,200 mg once daily,,objective response rate,44%
C[N+]1(C)CCC(OC(=O)C(O)(c2ccccc2)C2CCCC2)C1 (stereo not shown),,,COPD patients,"inhaled, 50 µg once daily, 24 h postdose, dosing day 7",reference: baseline,placebo-corrected trough FEV1 change,130 mL
Nc1cc(C(F)(F)F)c(-c2nc(N3CCOCC3)nc(N3CCOCC3)n2)cn1,"SIK3 (Homo sapiens, UniProt Q9Y2K2)",enzyme activity,,10 µM,reference: untreated,remaining activity,84%
COC(=O)C1=C(C)NC(C)=C(C(=O)OC)C1c1c(Cl)nc2sc(Cl)cn12,,calcium-induced contraction,guinea pig aortic strip,"50 µM, with: K+ 80 mM depolarisation",,inhibition,34 ± 2.9%
Nc1cccc2c1C(=O)N(C1CCC(=O)NC1=O)C2=O (stereo not shown),,,relapsed refractory multiple myeloma patients,"dose not given, bortezomib and lenalidomide refractory",,partial response or better rate,16%
COc1ccccc1Oc1cccc(CN2CCC(NC(=O)C(CCN3CCCC3)c3ccccc3)CC2)c1 (stereo not shown),human CCR8 Y114A mutant (TM3),"IP accumulation, agonist",,,,EC50,579 nM
COc1nccnc1CC(C)C,,,"human, water",,,odour detection threshold,0.005 µg/kg
CC1(C)S[C@@H]2[C@H](NC(=O)[C@H](N)c3ccccc3)C(=O)N2[C@H]1C(=O)O,Pseudomonas aeruginosa,,clinical isolate RKI-No_221/16,,,MIC,> 16 µg/mL
COC[C@@H](c1ccc(C(F)(F)F)cc1)N1CCN(C2(C)CCN(C(=O)c3c(C)ncnc3C)CC2)C[C@@H]1C,,,treatment-naive HIV patients,"50 mg twice daily, day 14, monotherapy without ritonavir",,HIV RNA reduction,1.62 log copies/mL
Cc1cc(-c2nccc3c2ccn3CC(=O)Nc2ccc(-c3cnccn3)cn2)ccn1,,measured: Ashcroft score,"rat, bleomycin-induced pulmonary fibrosis",10 days once daily,,dose inhibiting fibrosis,≥ 10 mg/kg
CNC(C)C1CCC(N)C(OC2C(N)CC(N)C(OC3OCC(C)(O)C(NC)C3O)C2O)O1 (stereo not shown),Pseudomonas aeruginosa,,clinical isolate RKI-No_40/14,,,MIC,> 8 µg/mL
NC(=S)NN=Cc1ncccc1N,,,cervical cancer patients,"dose not given, randomized phase II, with: IV cisplatin plus radiation",,complete metabolic response,92%
C[C@H](O)C(=O)C1=Nc2c(nc(N)[nH]c2=O)NC1,,,human PKU patients,"oral, dose not given, phase II/III trial",,blood phenylalanine,decreased
C[C@H]1COCCN1c1nc(-c2cnc(N)cc2C(F)F)nc(N2CCOCC2)n1,U-87 MG,,,,,GI50,546 nM
CCS(=O)(=O)N1CC(CC#N)(n2cc(-c3ncnc4[nH]ccc34)cn2)C1,,,rheumatoid arthritis patients,4 mg,reference: placebo,ACR20 response difference,30.8 percentage points
CCN(c1cc(-c2ccc(CN3CCOCC3)cc2)cc(C(=O)NCc2c(C)cc(C)[nH]c2=O)c1C)C1CCOCC1,,,advanced epithelioid sarcoma patients,dose not given,,progression-free survival,5.5 months
COc1cc(NC(=O)CCN2CCC(OC(=O)Nc3ccccc3-c3ccccc3)CC2)c(Cl)cc1CNC[C@H](O)c1ccc(O)c2[nH]c(=O)ccc12,,,COPD patients,"inhaled, 400 µg twice daily, 12 h postdose, dosing day 1",reference: baseline,placebo-corrected trough FEV1 change,172 mL
CN(C)c1ccc2c(c1)C#Cc1ccc([N+](C)(C)C)cc1C#C2.O=C([O-])C(F)(F)F,,"SPAAC cycloaddition, substrate, UV spectroscopy",methanol,"room temperature, mean of 2 runs, with: benzyl azide 100 mM",,second-order rate constant,0.097 M⁻¹ s⁻¹ and 0.0974 M⁻¹ s⁻¹

# Some of these lines once more:
SMILES,target or system,test,system,setting,how to read,endpoint,value
Cc1cnc(C)c(C)n1,,,"human, water",,,odour detection threshold,23 µg/kg
Nc1cc(C(F)(F)F)c(-c2nc(N3CCOCC3)nc(N3CCOCC3)n2)cn1,"SIK3 (Homo sapiens, UniProt Q9Y2K2)",enzyme activity,,10 µM,reference: untreated,remaining activity,84%
